Published values pooled from the literature.
Each numbered part is a random draw from the data of one study; scales do not carry over between parts.

Set 1
Target: RNA binding protein fox-1 homolog 2, RRM domain, GST-SBP tag (RBFOX2, Homo sapiens, UniProt O43251-10, residues 100-194)
Method: RNA Bind-n-Seq
Molecule type: RNA
Sample: in vitro
Concentration: 365 nM
Setting: natural RNA segment, single round, ends assumed
Reference: no-protein control
Direction: higher = stronger binding
Target sequence (chain): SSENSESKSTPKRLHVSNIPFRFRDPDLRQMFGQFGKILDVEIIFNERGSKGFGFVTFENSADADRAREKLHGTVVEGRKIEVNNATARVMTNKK
| Strand | RBNS enrichment (R) |
| --- | --- |
| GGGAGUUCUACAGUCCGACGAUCCGCAGCUGCCCACACGCAAGGUCAUGGCCCCAGCGGCCCCGGCACAUGGAGUGGUUCAGCGCGGCCUGGGUGCCUGGCGGACAGAACUUCAGAGACCACGCAGCCUUCCUUGGAAUUCUCGGGUGCCAA | 0.417 |
| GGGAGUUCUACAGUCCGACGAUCCCUACUUCUACCCUCACUGGCCUCCAGUGGGAUUCACUCCUGCCCUGCCCCCACCUUCCCAGUCCCACAGGCCACCCCUGGCUUGGGCUGGGUUCUGUGAAGUUACGUAUUGGAAUUCUCGGGUGCCAA | 0.346 |
| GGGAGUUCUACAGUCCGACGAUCGCUGCAGAGAGAGAGAGUGUGUGUAUGUGUGCACAUGUGUGAGAGUGUGAGCGAGAGUGUGUGUGUGUCCAUCUAAGUGUGUGUGAUGAAGGUGGGAUAAGGCUCCUCUGUGGAAUUCUCGGGUGCCAA | 3.42 |
| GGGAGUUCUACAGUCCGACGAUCUGCUUGUUCUUCUGAACUUGGGGACCAUGCCUCUUUGGGCUCUGCUUCCAGGAUGGUUUGGGAAGCAUAGCAGGGCACGGCUCGGCUCCUGAGAUCCAUCCCCUAGACUGUGGAAUUCUCGGGUGCCAA | 1.41 |
| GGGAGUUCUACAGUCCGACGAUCGAACUUUUAAGAGGAUAGAAUACAUGGAAACGCAAAUGAGUAUUUCGGAGCAUGAAGACCCUGGAGUUCAAAAAACUCUUGAUAUGACCUGUUAUUACCAUUAGCAUUCUUGGAAUUCUCGGGUGCCAA | 4.26 |
| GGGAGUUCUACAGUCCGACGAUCCAUUUAGCCUGAUUUUCCAACGUCAUUGGUGACAGGCCAAGGCCACUAUGUUAUUUCCUUUGUUCUGGUAUCCUUCCCUUGGAGGACCUUCUCUGAGUAGUGGCUCCCCAUGGAAUUCUCGGGUGCCAA | 0.321 |
| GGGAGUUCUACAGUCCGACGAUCCAGUUUUCUGUCACUGGUGGGCACUGGACAGGCAUAGCAGACUCUCUUGUGGCCACACUAGGUUGUCGCCUUUCAGGCAGUGUCCCGCCACCUUUGCUUCCCGCUCCUUCUGGAAUUCUCGGGUGCCAA | 0.382 |
| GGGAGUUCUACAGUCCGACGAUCCAUUUCUAUCAUGCAUUCCGAUGUCAUGGCAGAAAAUUUUGAAGAUAAAAAAAUAAGAUAAUCAAAAUGUUUCCUUUGCCUUUGUUUGGUCUUGGUUGUCGGAGACAGUCUGGAAUUCUCGGGUGCCAA | 0.731 |
| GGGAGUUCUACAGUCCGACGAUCCUACAUAUCACGUGUGAGACAACUUCUUUCACAUCUCCAUAGUGCCCAGCAAAUUUGAGGCCUAUGGUAGUUGAGGUGCUCAACUAAUGUUUGUUGUAUGAACCAAGUGGUGGAAUUCUCGGGUGCCAA | 0.3 |
| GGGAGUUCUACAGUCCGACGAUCCCCAGAGUGGCACUCAAAGUACUAUCAAACAAUAAAAGGAAAAUGGUGCUGUUUGAAGUUACAUCCCUUCUCUUUGGAGGAUUUAAAAAUGAUCUAUCUUUUGGUCCACUUGGAAUUCUCGGGUGCCAA | 0.548 |
| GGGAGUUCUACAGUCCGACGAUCGUGCCUGACUAGGGAGCCCUCCCAUUGCCUUCCUGGCCCGGGAUAGAAGAGGGGAGGUAAGUCUGGGGGCUACGAAGCCGGGCCCCCACACCCUGGCUGAAGUCAGCUUGUGGAAUUCUCGGGUGCCAA | 0.301 |
| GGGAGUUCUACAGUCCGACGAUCCUUUCUGUCAAUUUUGUUGUUGUUGUUGUUUUUCAUUUUCUUUUUUUCUCUUGACUCCUCCUUUUAGGAUGUCCAGAUGUAAAAAAAAAAAAAAAAAAAAGAAAAAAAGAUGGAAUUCUCGGGUGCCAA | 1.11 |

Set 2
Target: Ras GTPase-activating protein-binding protein 1, RRM domain (G3BP1, Homo sapiens, UniProt Q13283)
Sequence of UniProt Q13283 (whole entry, looked up): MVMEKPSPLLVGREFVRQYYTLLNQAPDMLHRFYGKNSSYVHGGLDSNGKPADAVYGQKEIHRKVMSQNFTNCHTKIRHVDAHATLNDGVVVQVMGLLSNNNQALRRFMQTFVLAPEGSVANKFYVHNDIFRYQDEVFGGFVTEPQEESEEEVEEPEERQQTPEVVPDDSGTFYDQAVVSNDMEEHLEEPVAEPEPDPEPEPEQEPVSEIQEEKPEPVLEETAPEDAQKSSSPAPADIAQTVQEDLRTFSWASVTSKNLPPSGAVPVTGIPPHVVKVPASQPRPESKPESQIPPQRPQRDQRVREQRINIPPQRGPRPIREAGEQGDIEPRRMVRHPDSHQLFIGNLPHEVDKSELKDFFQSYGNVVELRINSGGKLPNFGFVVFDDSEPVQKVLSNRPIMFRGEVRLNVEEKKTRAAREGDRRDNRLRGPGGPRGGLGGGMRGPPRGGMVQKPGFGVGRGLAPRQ
Method: RNA Bind-n-Seq
Molecule type: RNA
Sample: in vitro
Concentration: 1 µM
Setting: whole 134-nt RNA, ends assumed
Together with: 150 mM KCl
Reference: input library
Direction: higher = stronger binding
| Strand | log2 enrichment |
| --- | --- |
| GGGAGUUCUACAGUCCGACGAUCCCUCAAGUCCUGUGCUACACAUCGUAUGUACCGAAUCGGGGCGGCGGGCGGGGAAAGUAUUAUGUUACGCCGUUCGGAUCUGCACUUCCAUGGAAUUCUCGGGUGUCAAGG | 0.0608 |
| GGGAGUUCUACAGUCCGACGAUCGCAGGAAGUAAAAACAAAUGGAAAUGCUUCGGAUAGUGGCAGGGGUGGGCGUUGCUAAGGAAAGGGUGGGAUGGGAGUGGGUAAAGAGUUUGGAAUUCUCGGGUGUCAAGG | 0.816 |
| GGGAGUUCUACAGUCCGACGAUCACCAUGCAGGUGGGCAUCUUUGGGAAGUGGGGCAAGGGGGGGAUAGGGAGGGCGGUAACACUUUGGGAACAGGUGGUCCCAGGUCGUUUCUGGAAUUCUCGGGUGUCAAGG | 0.797 |
| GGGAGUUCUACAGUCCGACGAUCUGGGAGGUGGAUUUUGUUUAUUUUUUUAGCUCAUUUCCAGGGGUGGGAAUUUUUUUUUAAUAUGUGUCAUGAAUAAACUUGUUUUUGAAAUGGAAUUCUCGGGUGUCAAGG | 1.52 |
| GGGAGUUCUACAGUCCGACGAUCUGGGAGGUGGAUUUUGUUUAUUUUUUUAGCUCAUUUCCAGGUGUGGGAAUUUUUUUUUAAUAUGUGUCAUGAAUAAAGUUGUUUUUGAAAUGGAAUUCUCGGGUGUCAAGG | 2.19 |
| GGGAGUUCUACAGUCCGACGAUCUGGCCCUGGUGGCAUGCGGGGAGGAAGAGGUGGCCUCAUGGAUCGUGGUGGUCCCGGUAGAAUGUUCAGAGGUGGCCGUGGUGGAGACAGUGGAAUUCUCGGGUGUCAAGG | 0.953 |
| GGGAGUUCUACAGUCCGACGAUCCACAGACAACACGCACCCACACAGACACAGAGGGAAGGGGUUGGGAUGGGGACAGGGUGCAUAGCAGGGCGGGGUAGGACCCCAGCCCCUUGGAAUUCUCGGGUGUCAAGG | 0.115 |
| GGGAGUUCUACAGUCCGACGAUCCAAGUCCUGUGCUACACAUCGUAUGUACCGAAUCGGGAGGGUUUUUUUGGGAGGGAAAGUAUUAUGUUACGCCGUUCGGAUCUGCACUUCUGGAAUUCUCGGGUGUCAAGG | 0.677 |
| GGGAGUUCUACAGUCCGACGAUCCAAAGACAACACGCACCCACACAGACACAGAGGGAAGGGGUUGGGAUGGGGACAGGGUGCACAGCAGGGCGGGGUAGGACCCCAGCCCCUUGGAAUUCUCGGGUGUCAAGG | -0.166 |
| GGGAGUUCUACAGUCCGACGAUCCACAGACAACACGCACCCACACAGACACAGAGGGAAGGGGUUGGGAUGGGGACAGGGUGCACAGCAGGGCGGGGUAGGACCCCAGCAAAUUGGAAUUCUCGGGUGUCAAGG | -0.172 |

Set 3
Target: RING finger protein unkempt homolog, zinc fingers 1-6, GST-SBP tag (UNK, Homo sapiens, UniProt Q9C0B0, residues 30-357)
Method: RNA Bind-n-Seq
Molecule type: RNA
Sample: in vitro
Concentration: not given
Setting: RNA with constant flanks, human and mouse sites, ends assumed
Reference: input RNA pool
Direction: higher = stronger binding
Residues (chain): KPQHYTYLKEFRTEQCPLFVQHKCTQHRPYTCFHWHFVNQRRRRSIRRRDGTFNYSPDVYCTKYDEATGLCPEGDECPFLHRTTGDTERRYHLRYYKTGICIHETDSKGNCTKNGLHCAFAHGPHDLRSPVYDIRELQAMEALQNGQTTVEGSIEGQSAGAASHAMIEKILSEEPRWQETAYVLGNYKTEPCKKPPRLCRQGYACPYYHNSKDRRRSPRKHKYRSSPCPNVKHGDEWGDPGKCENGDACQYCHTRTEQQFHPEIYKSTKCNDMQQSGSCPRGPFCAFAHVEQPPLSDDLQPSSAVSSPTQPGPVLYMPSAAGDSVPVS
| Strand | bound/input enrichment |
| --- | --- |
| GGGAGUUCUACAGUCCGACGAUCGGAAGCACAUUAAUGGAAAUAGAUGGCGAUAAAGGCAAACAAGGCGGUCCCACCUACUACAUAGAUACUAAUGCUCUGCGUGUUCCGAGGGAGAAUAUGGAGGCCAUUUCACCUCUAAAACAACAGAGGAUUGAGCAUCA | 0.239 ratio |
| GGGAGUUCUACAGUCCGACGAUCCUGGAUCAGUAUGGCCAAUGUGUGGCAGCCAAGCCAGAGUCGUGGCAUCGAGAUUGUCACCACCUUAAGAUGAGCAUUGCUCGCUGCACGUCCUCCCACCCGAUCAUCCGCCAGAUCCGCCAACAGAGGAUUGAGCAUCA | 0.0713 ratio |
| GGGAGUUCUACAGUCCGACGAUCGGAAUCGUCACUCGUGUCUCUGAAGUCAAACCCAAGAUGGUGGUGGCCACUUACACUUGUGACCAGUGUGGGGCAGAGACCUACCAGCCGAUCCAGUCUCCCACUUUCAUGCCUCUGAUCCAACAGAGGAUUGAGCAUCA | 0.0435 ratio |
| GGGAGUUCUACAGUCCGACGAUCCUGCGGCUUUUGGAACAGAAAGUUGAGCUUGCGCAGCUGCAAGAAGAAUGGAAUGAACAUAAUGCCAAAAUAAUUAAAUAUAUAAGAACUAAGACAAAGCCCCAUUUGUUUUAUAUUCCUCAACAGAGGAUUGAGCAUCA | 0.793 ratio |
| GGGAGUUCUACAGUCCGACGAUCUUCACCACUCCUGGGUGCAUGAUUGAGGGUGAAGCAUCCACCAGCACUUCAAGGGGUCCAUAGUAUUUUUUUUUUUGCUGCCUCAAAGUCCCCAAAGCCUUCGAGCAGAAGUGGCAGUAGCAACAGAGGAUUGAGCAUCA | 67.8 ratio |
| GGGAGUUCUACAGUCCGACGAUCCAAGGUGUGCCGAAGGAGAAGCUCACUGGCACAAUUCAGAAUGACAUCCUAAAGGAGUUUAUGGUCAGAAAUACUUAUAUUUUUCCCCCAGAGCCAUCGAUGAAAAUUAUUGCUGACAUUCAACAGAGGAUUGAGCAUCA | 0.183 ratio |
| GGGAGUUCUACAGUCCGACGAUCAGUGUAGUAUUUAUUUCUAAUUUGCCUAACAAAGGAUAUUCUACAGAAGAAAUUUACAACUUAGCAAAACCAUUUGGUGCUUUGAAGGACAUUUUGGUUUUAUCAUCUCAUAAAAAGGCACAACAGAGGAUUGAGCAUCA | 4.08 ratio |
| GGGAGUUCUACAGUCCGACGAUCUGCAGCUGCUCCUGCCUCACUGUGAGGAAUGAAGAAAGAGGGGAAAAUGCGGGAAGACCCACACACACUACAAAAAUGGAGAGUAUCCAGGUCCUAGAGGAAUGCCAAAACCCCACUGCACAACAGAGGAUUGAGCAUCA | 0.367 ratio |
| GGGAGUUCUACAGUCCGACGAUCGACCACAUUGCUGGAGAUGAGGAUCACACAGAUGGAGUAGUAGCUUGUGCUGCUGGACUAAUAGGGGACUUAUGUACAGCAUUUGGGAAGGAUGUACUGAAAUUAGUAGAAGCUAGGCCACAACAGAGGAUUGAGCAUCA | 0.788 ratio |
| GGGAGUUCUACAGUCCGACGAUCACACCUUUGUUUCUUGCUGCCCGAGAGGGAAGUUAUGAAGCGGCCAAAAUCCUGUUAGACCAUUUUGCCAACCGGGACAUCACUGACCACAUGGACCGCCUUCCCCGGGAUGUGGCUCGGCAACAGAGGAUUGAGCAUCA | 0.207 ratio |
| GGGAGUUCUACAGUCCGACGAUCACUCCGAGCUCCUUUGAUACCCACUUCCAAAGUCCUUCCAGUAGUGUGGGCUCCCCUCCUGUGCUGUAUAUACCAGGCCAGUCUCCACUCCUCACAAGGAUCUAUGAUUGAGCUGCGCAACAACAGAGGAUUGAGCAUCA | 0.228 ratio |

Set 4
Target: Sox-I, HMG box (Salpingoeca helianthica)
Method: Spec-seq
Molecule type: double-stranded DNA, one strand shown
Sample: in vitro
Concentration: not given
Setting: whole probe, mean of replicates
Reference: not given
Direction: lower = stronger binding
Shared flanks, not repeated: GAGTCGTCTCGTCAGCAC … CCGTAGAGCACTCAGGTC
Construct (chain): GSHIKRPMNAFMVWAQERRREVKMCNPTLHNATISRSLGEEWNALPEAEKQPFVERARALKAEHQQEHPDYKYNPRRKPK
| Strand | relative binding energy [ln ratio] |
| --- | --- |
| CATATAA | 0.231 |
| CATAGCA | 0.191 |
| CAATGTT | -0.105 |
| CATATAG | 0.353 |
| CATTGGG | 0.93 |
| CATTAGT | 0.795 |
| CATAACT | 0.439 |
| CATGTGA | 1.03 |
| TTCAGTT | -0.0927 |
| CACAGTT | -0.0762 |
| CATAAGA | 0.197 |
| TCTGGTT | 0.678 |
| ATTGGTT | 0.0926 |
| CATTCCA | 0.913 |
| CATCCGG | 1.07 |
| CACTGTT | -0.725 |
| CATCACT | 0.273 |
| ATCAGTT | -0.284 |
| ACTCGTT | 0.172 |
| CATCAAC | 0.413 |
| CTTGGTT | 0.733 |
| CATTAAT | 0.333 |
| TCGCGTT | 0.879 |
| CATTGAG | 0.552 |
| TTGCGTT | 1.1 |
